# Published values collected from several papers.
# Every numbered part comes from another study and shows a few of its results, in no order.

# Sample 1
# Target: Ras GTPase-activating protein-binding protein 1, full length (G3BP1, Homo sapiens, UniProt Q13283)
# UniProt Q13283, sequence (whole entry, looked up): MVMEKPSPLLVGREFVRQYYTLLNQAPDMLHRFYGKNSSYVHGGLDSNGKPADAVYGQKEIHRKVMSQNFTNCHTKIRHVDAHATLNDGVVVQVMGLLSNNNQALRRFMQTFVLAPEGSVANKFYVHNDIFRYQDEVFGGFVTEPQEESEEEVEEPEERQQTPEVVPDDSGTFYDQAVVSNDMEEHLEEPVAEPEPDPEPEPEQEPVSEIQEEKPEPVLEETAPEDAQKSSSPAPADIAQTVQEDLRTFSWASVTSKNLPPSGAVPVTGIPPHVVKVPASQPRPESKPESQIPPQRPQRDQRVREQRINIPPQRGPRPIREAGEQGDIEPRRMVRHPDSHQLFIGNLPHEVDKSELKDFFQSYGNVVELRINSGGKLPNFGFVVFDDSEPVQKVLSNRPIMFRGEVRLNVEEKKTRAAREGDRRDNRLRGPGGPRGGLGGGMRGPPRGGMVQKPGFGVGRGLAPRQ
# Technique: RNA Bind-n-Seq
# Molecule type: RNA
# Sample: in vitro
# Tested at: 200 nM
# Setting: whole 134-nt RNA, ends assumed
# Together with: 150 mM KCl
# Relative to: input library
# Direction: higher = stronger binding
# All sequences stand within: GGGAGUUCUACAGUCCGACGAUC … UGGAAUUCUCGGGUGUCAAGG
Sequence,log2 enrichment
UGGGAGGUGAAUUUUGUUUAUUUUUUUAGCUCAUUUCCAGGGGUGGGAAUUUUUUUUUAAUAUGUGUCAUGAAUAAAGUUGUUUUUGAAA,-0.0898
GCAGGAAGUAAAAACAAAUGGAAAUGCUUCGGAUAGUGGCAGGGGUGGGGGUUGCUAAGGAAAGUGUGGGAUGGGAGUGGGUAAAGAGUU,0.863
CAAGUCCUGUGCUACACAUCGUAUGUACCGAAUCGGGUUUUUGGGUUUGGGUGGGAAAGUAUUAUGUUACGCCGUUCGGAUCUGCACUUC,0.497
UGGGAGGUGGAUUUUGUUUAUUUUUUUAGCUCAUUUCCACGGGUGGGAAUUUUUUUUUAAUAUGUGUCAUGAAUAAAGUUGUUUUUGAAA,-0.177
UGGCCCUGGUGGCAUGCGGGGAGGAAGAGGUGGCCUCAUGGAUCGUGGUGGUCCCGGUGGAAUGUUCAGAGGUGACCGUGGUGGAGACAG,0.188
UGGGAGGUGGAUUUUGUUUAUUUUUUUACCUCAUUUCCAGGGGUGGGAAUUUUUUUUUAAUAUGUGUCAUGAAUAAAGUUGUUUUUGAAA,-0.231
AGUCCUGUGCUACACAUCGUAUGUACCGAAUCGGAAAAAGGAAAAAGGAAAAAAAGGAAAGUAUUAUGUUACGCCGUUCGGAUCUGCACU,-1.24
CUUCUUGCAUGCUCGGCUCCGGACAGCUACGCUUCGGCAUGACGCAGACGGGCAGGCCACCCUGUUGAACCUCCUGCUGCGGAAUUACCU,-0.202

# Sample 2
# Target: Replicase polyprotein 1ab, nsp13 helicase (rep, Severe acute respiratory syndrome coronavirus 2, UniProt P0DTD1)
# Action: inhibitor
# Tested at: 20 µM
SMILES,inhibition [%]
O=C(O)CCc1nc(-c2ccccc2)c(-c2ccccc2)o1,1.02
CN1CC(=O)NC1=N,-4.9
CC(=O)N1CCN(c2ccc(OC[C@@H]3CO[C@@](Cn4ccnc4)(c4ccc(Cl)cc4Cl)O3)cc2)CC1 (racemic),3.19
CN[C@@H](C)C(=O)N[C@H](C(=O)N1CCC[C@H]1c1nc(C(=O)c2ccc(F)cc2)cs1)C1CCCCC1,1.84
O=C(c1ccc(F)cc1)C1CCN(CCn2c(=S)[nH]c3ccccc3c2=O)CC1,3.92
Cn1cc(C[C@@H](N)C(=O)O)c2ccccc21,11.8
O[C@@](Cc1ncc(CC2(C(F)(F)F)CC2)[nH]1)(c1ccc(-n2cccn2)cc1)C(F)(F)F,6.39
CC1(C)O[C@@H]2C[C@H]3[C@@H]4C[C@H](F)C5=CC(=O)C=C[C@]5(C)[C@H]4[C@@H](O)C[C@]3(C)[C@]2(C(=O)CO)O1,1.86
CCCN(CCC)C1CCc2cccc(O)c2C1 (stereo not shown),7.12
CC(C)NCC(O)COc1cccc2[nH]c3ccccc3c12 (stereo not shown),4.14
N#CCCCSC(=N)N,-1.96
Cc1[nH]c(/C=C2\C(=O)Nc3ccccc32)c(C)c1CCC(=O)O,9.45
CN1CCN(c2ccc3[nH]c(-c4ccc5[nH]c(-c6ccc(O)cc6)nc5c4)nc3c2)CC1,60.1
Nc1ncnc2nc(-c3ccc(N4CCOCC4)nc3)cc(-c3cccc(Br)c3)c12,4.19
O=C(O)c1cc(=O)c2ccccc2[nH]1,2.58
CC(C)c1nc(N(C)S(C)(=O)=O)nc(-c2ccc(F)cc2)c1/C=C/[C@@H](O)C[C@@H](O)CC(=O)O,9.25
CC(=O)NNC(=O)N1Cc2ccccc2Oc2ccc(Cl)cc21,3.31
C[C@@H]1CN(CCCn2c3ccccc3c3ccccc32)C[C@H](C)N1,5.61
OCCc1ccc(OCCn2ccnc2)cc1,1.33
N[C@@H](CCNCc1ccc(Cl)cc1)C(=O)N1CCCCC1,-10.1
O=C(C(c1ccccc1)c1ccccc1)N1CCN(CC(O)COc2cccc3ncccc23)CC1 (stereo not shown),2.21
Cc1cc(Oc2ccc3nc(COc4ccc(CC5SC(=O)NC5=O)cc4)n(C)c3c2)cc(C)c1N (stereo not shown),-3.9
N[C@@H](C[C@@H](F)C(=O)O)C(=O)O (racemic),7.55
O=C(O)CCN(O)C(=O)CCCCCCCCC1CC1,2.44
CN(C)CCCC(=O)Nc1ccc(C(=O)Nc2cccc(Nc3ncc(Cl)c(-c4c[nH]c5ccccc45)n3)c2)cc1,-0.29

# Sample 3
# Target: RNA binding protein fox-1 homolog 2, RRM domain, GST-SBP tag (RBFOX2, Homo sapiens, UniProt O43251-10, residues 100-194)
# Technique: RNA Bind-n-Seq
# Molecule type: RNA
# Sample: in vitro
# Tested at: 365 nM
# Setting: natural RNA segment, single round, ends assumed
# Relative to: no-protein control
# Direction: higher = stronger binding
# All sequences stand within: GGGAGUUCUACAGUCCGACGAUC … UGGAAUUCUCGGGUGCCAA
# Residues (chain): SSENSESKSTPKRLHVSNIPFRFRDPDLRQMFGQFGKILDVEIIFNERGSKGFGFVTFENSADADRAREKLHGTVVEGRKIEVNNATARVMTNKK
Sequence,RBNS enrichment (R)
UGGGUGCUGUACCUGUUCCAGAAGCGAGGACCCAGGUGACAGCCUCACCUUUGCAAAGUUAUAGAGGAACCUGCCCUGGUACAUCUUUAAUAUUAGGAUUCUGUUUUCUA,0.308
CCAGUCAAGAAGAAAAAGGUUUGCAUUCUCACAUUGCCAGGAUGAUAAGUUCCUUUCCUUUUCUUUAAAGAAGUUGAAGUUUAGGAAUCCUUUGGUGCCAACUGGUGUUU,0.911
CGGCCCGAGAUUAGGGAGGAUUGACUGUGUCAGGGAUGGCGGGUGGCCUCUCUCGCUGCCAGGGCCCUUGUCAGAGCAGCCAGGCUGGACAGACGGCCUCCCUCCUCUCC,0.272
CUGUCUGCAAACAGUGUCAGGAUCAGAAUCAAGGACAGGAGGCAAAGUGAAGUUCACACCCAGCACCCACAACCUUUAUCAGUCCUCCCGACUCCCCACCCUUUUGCAUU,1.68
AGCCGGGACCGUGCCAUUGUACUCCAGCCUGGGUGACAGAGCGAGAUUCCGUCUCAAAAAAAAAAAAAAAAAGCCCACCUGAAAGCCUGUCUCUUUCCACUUUGUUGGCC,0.695
GAGGCCACCUGACAUGCAUUAGCCUGGACUUCUCUGAGAGCUGGGCACAGCUUGCAGGACCCUGGCUUUCUAAGCUGAACCACAGAUUGUUCUUCCACCCACCCUCUCUU,0.573
UUUAUUGCAUGCACUGUGACCUUGGGGGGAGACAAAGAGGGGGAUUGUACCCCCACCCCCUGCACCUCCCUGCGAUCUGGCUGGCUUGGAUCUCAUUUUUUAACCCCUUC,3.04
GGGUGGGAUAAAAGGUGGCAGAGGGAGCAAGGUCUUAAUUGCUCUGAAGGUUGGACCCGUGAAGCCCUGGCAUAGACCUGAAGAGGUGGCAGCCAGUGGGUGGUUGUUUC,0.809

# Sample 4
# Target: Replicase polyprotein 1ab, main protease (rep, Severe acute respiratory syndrome coronavirus 2, UniProt P0DTD1)
# Effect on: enzyme activity
# Action: inhibitor
SMILES,IC50
Nc1nc(-c2ccc(Cl)c(Cl)c2)c(-c2ccncc2)s1,5.37 µM
C=CCN1CCc2cc(O)c(O)cc2C(c2ccccc2)C1 (stereo not shown),> 20 µM
O=C(NC(=S)N1CCCc2ccccc21)c1ccccc1,> 20 µM

# Sample 5
# Cell line: HEK-293T/ACE2
# Tested at: concentration not given
# Time: 16 (unit not given)
# Relative to: vehicle
Compound,viability [%]
C[N+](C)(C)CCOC(N)=O,104
CC1=NS(=O)(=O)c2cc(Cl)ccc2N1,100
CC(=O)O[C@H]1C[C@@H]2CC[C@@H]3[C@H](CC[C@@]4(C)[C@H]3C[C@H]([N+]3(C)CCCCC3)[C@@H]4OC(C)=O)[C@@]2(C)C[C@@H]1[N+]1(C)CCCCC1,109

# Sample 6
# Target: RING finger protein unkempt homolog, zinc fingers 1-6, GST-SBP tag (UNK, Homo sapiens, UniProt Q9C0B0, residues 30-357)
# UniProt Q9C0B0, sequence (30-357, looked up): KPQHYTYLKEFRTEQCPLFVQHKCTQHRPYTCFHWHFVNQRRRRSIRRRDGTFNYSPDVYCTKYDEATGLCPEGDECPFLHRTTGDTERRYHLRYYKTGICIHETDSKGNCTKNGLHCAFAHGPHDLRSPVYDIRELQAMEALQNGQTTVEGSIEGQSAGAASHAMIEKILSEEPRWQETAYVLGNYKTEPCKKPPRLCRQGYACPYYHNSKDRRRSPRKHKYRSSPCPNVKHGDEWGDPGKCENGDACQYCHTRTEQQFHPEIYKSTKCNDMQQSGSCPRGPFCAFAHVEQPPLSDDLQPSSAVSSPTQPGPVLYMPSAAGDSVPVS
# Technique: RNA Bind-n-Seq
# Molecule type: RNA
# Sample: in vitro
# Tested at: not given
# Setting: RNA with constant flanks, human-mouse chimeric sites, ends assumed
# Relative to: input RNA pool
# Direction: higher = stronger binding
# All sequences stand within: GGGAGUUCUACAGUCCGACGAUC … CAACAGAGGAUUGAGCAUCA
Sequence,bound/input enrichment [ratio]
UGGCGCCUGCGCUCCCCACUCGUGUUUUUAAGUGUAUUUUUAUAAGAUACAUGUAUUUGUAAUAGAUCUUUUGUUACAUAAUGCUGAAAACAUCUCUGAGAUUAUGAAAAAUGUUUCAAU,0.105
CCAAUUGUGGAGCAGUACUUGAAGACAAAGAAAAAUUCUAAUAAUUUAAUCAUCAAGUACAUUAGCUGCCGCCUGCUGACAUUUGUGAUUAUACUGUUGGCAUGUAUCUACCUGGGCUAU,0.401
AAAGAACUACUGAGGCAAGGCAGCAAAUUUAGGAGAGACAUUUCAACAAUAUUGAUAGAGUUAGGAUUCCAAAUUAAAAAGAAAACUAAAAGAUUGUAUAUCAACAAAGCCAAUGUGUGG,7.18
CCCUCCCCGGGCCACCCACCCCUCCCGGCUCCCCGCCGAGAUCCAGGUUUCUUCUUAUUUCAUAGCCAAUAAGAAAAAUGUUCUACGCACAUUUUGUCCUCAGUAAACGAGGGCCUCUGG,0.661
UCAUUUUUCUCUUUUCUUUCUUUCCUUUAGGAAAAGCAGAUUAGACUGGUUGUAAGAAAAACAGAAGCCAUGUUUCGAAGACCUGUGUUACAGGUAUUUCGUCAGUUUGUAAGACAUGAG,0.438
GUGUCCUGCUUUCAACUUAAAUCACUGCAUUUUUACUACUGUUCUGUGAGCAUCAGGACUGUAGCGCUGUGUCACCACAUGAGAGUUGUUAAGCAGCCUUUCUGUGGAGGGUGGGAAUGA,0.147
AGAUAUUAAGUAUUUUGAAAAAAUUCAAACAGAUUUGACAAGGGUAGCCAGCUUGGAGUCUAGCAACUUGCCAAUGUGUUUACCAAUCUGGGGGCUUGUUUUUCUUUUCUUCUUUCAAAU,0.441
UUACUUUUGACUCCCUGGGUCAAGUUCCUGUGGGAAUCAUACAGGCAGUGUUUGGACCUUCUUAGAAACAAUUCUAGAGUAGAGCGCCUUUACCAUGAUAUCGCCCAACAAGCUUUCAAA,0.255
